Assay results from different studies.
Every numbered part comes from another study and shows a few of its results, in no order. Numbers after ± are the reported error.

Study 1
Organism: SARS-CoV-2 Wuhan spike VSV pseudovirus
Observed: pseudovirus entry
Tested at: 10 µM
Measurement: inhibition
CCOc1ncccc1C(=O)Nc1ccc(C)cc1S(=O)(=O)N(CC)CC: 99%
O=C(Nc1nc2c(s1)CCC2)c1[nH]nc(C2CC2)c1Br: 86%
CCc1noc([C@@H]2CC(F)(F)CN2C(=O)C2CCOCC2)n1: 84%
CCCc1nc(CN(CC)C(=O)c2csnn2)no1: 99%
CNC(=O)CC1C(=O)NCCN1C(=O)c1cc2ccccc2n1C (stereo not shown): 100%
COc1ccc(NC(=O)Cn2ccc3c(=O)[nH]ccc32)cc1: 54%
COc1ccc(S(=O)(=O)N2CCC[C@@H]2C(=O)NCCc2csc(C)n2)cc1Cl: 55%
COc1ccccc1C1CCCN1C(=O)CCCn1nnnc1CN1CCOCC1 (stereo not shown): 80%

Other studies, line by line
rep nsp14: Replicase polyprotein 1ab, nsp14 (rep, Severe acute respiratory syndrome coronavirus 2, UniProt P0DTD1)
rep nsp12 RdRp: Replicase polyprotein 1ab, nsp12 RdRp (rep, Severe acute respiratory syndrome coronavirus 2, UniProt P0DTD1)
rep papain-like protease: Replicase polyprotein 1ab, papain-like protease (rep, Severe acute respiratory syndrome coronavirus 2, UniProt P0DTD1)
O=C(NC1CCN(c2ncnc3[nH]cnc23)CC1)c1cccc(S(=O)(=O)N2CCCC2)c1 — IC50 (rep nsp14; enzyme activity; SARS-CoV-2): 4.11 µM
Cc1csc(-c2nnc(Nc3ccc(Oc4ncccc4-c4ccnc(N)n4)cc3)c3ccccc23)c1 — BLI response (rep nsp12 RdRp; binding, biolayer interferometry; 50 µM): 0.02 nm
N#C[C@@]1(n2ccc(N)nc2=O)O[C@H](CO)[C@@H](O)[C@H]1O — EC50 (SARS-CoV-2; viral replication; Vero, Gamma): 0.7 ± 0.004 µM
Cc1ccc(NC(=O)C2(c3ccc4c(c3)OC(F)(F)O4)CC2)nc1-c1cccc(C(=O)O)c1 — BLI response (rep nsp12 RdRp; binding, biolayer interferometry; concentration not given): 0 nm
O=S(=O)(F)Cc1ccccc1 — activity (rep papain-like protease; concentration not given, C111S mutant; relative to: positive control): 19.3%
CCC(CC)[C@H](NC(C)=O)[C@@H]1[C@H](O)[C@@H](C(=O)O)C[C@H]1N=C(N)N — IC50 (neuraminidase (Influenza B virus, UniProt A0A1S5RAG6, R150K)): 0.566 ± 0.0895 µM
O=C(NC1CCN(c2ncnc3[nH]cnc23)CC1)c1cccc(S(=O)(=O)N2CCCCC2)c1 — Hill slope (rep nsp14; enzyme activity; SARS-CoV-2): 1.37
CC(C)=CCc1c(O)c(CC=C(C)C)c2oc3c(O)ccc(O)c3c(=O)c2c1O — activity (rep papain-like protease; concentration not given, C111S mutant; relative to: positive control): 20%
